Measurements from different studies.
Parts stem from different laboratories: compare values within a part only.

Block 1
Target: Centromere-binding protein 1, full length, His-tagged (CBF1, Saccharomyces cerevisiae, UniProt P17106, residues 1-351)
Chain of UniProt P17106 (whole entry, looked up): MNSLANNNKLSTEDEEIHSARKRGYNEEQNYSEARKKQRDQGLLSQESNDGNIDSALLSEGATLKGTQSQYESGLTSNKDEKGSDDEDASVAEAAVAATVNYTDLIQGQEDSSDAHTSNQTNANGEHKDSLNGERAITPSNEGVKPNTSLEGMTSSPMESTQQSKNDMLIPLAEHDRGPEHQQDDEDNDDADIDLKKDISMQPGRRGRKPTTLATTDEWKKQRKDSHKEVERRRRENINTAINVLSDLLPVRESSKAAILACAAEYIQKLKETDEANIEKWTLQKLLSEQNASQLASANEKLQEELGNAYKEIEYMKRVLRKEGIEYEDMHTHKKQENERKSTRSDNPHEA
Method: competition protein-binding microarray
Form: double-stranded DNA, one strand shown
Matrix: in vitro
Tested at: 2 µM
Setting: whole 60-bp probe, lowest competitor level
With: Pho4 competitor, 0.05 µM
Direction: higher = stronger binding
Quantity: fluorescence intensity
TCTTTTTCGACCGGCCACGTGAGAAGACATACAGTTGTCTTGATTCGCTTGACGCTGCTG: 1090 a.u.
TGTTAAAGTTGTATCCATGTGTGCCCATAATGCCGAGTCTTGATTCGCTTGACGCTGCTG: 96.5 a.u.
TAGTTGTGCCTCGACCACGTGAGAAGGCGGTATTCAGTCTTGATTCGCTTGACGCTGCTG: 1130 a.u.
CGTCCTAGTGATTGGTTTGTGGGTGCCATGAGGAAGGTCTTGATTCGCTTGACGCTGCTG: 84.1 a.u.
CTAACGAAGGTTTGTCCGGTGGGTGACAAGCCAAGTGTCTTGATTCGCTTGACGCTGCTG: 66.3 a.u.
CATACCCAACCTTGCTGAGTGGGTGAAGATATTTGTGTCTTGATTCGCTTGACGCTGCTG: 75.1 a.u.

Block 2
Target: Transcription factor Sp1 (SP1, Homo sapiens, UniProt P08047, residues 1-785, full length assumed)
Chain of UniProt P08047 (whole entry, looked up): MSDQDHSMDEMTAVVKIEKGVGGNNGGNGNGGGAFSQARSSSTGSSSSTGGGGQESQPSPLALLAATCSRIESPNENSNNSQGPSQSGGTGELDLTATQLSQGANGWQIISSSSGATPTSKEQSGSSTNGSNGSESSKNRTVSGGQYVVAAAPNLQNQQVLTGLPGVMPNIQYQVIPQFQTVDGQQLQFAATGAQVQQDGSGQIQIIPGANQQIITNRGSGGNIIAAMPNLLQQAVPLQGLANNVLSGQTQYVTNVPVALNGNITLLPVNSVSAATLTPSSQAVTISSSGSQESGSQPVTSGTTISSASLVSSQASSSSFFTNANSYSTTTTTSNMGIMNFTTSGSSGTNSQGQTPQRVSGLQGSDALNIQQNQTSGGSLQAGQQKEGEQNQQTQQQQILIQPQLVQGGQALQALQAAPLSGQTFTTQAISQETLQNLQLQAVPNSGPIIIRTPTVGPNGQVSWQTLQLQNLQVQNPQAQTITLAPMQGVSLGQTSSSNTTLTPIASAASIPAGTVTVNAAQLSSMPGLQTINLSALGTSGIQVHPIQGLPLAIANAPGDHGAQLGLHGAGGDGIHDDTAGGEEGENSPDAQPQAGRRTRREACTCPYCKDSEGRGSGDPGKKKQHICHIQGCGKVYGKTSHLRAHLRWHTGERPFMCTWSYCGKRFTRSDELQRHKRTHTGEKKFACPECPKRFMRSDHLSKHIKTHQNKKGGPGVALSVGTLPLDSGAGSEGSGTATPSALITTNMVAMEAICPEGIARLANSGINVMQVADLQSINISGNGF
Method: protein-binding microarray
Form: double-stranded DNA, one strand shown
Matrix: in vitro
Tested at: not given
Setting: k-mer, scored over probes, only values ≥0.25
Direction: higher = stronger binding
Quantity: E-score
CACCACCA: 0.261
ATTTACGG: 0.282
AATGTATA: 0.266
CGCCCCAA: 0.296
ATTCCCCA: 0.308
GATAACCA: 0.252
GGGCGTAC: 0.3

Block 3
Target: Prothrombin, mature alpha-thrombin (F2, Homo sapiens, UniProt P00734)
Method: aptamer microarray, sandwich
Form: DNA with 2'F-ANA
Matrix: in vitro
Tested at: 200 nM
Setting: whole 15-mer aptamer, many near background
With: Cy3 exosite-II aptamer, 400 nM
Direction: higher = stronger binding
Quantity: mean fluorescence intensity
Sequence: GGTTGGTGTGGTTGG
2'F-ANA at 1 4 6 8 11 12 13 14: 67.4 a.u.
2'F-ANA at 1 5 7 10 12 13 15: 56.6 a.u.
2'F-ANA at 1 2 6 7 8 13 15: 129 a.u.
2'F-ANA at 1 2 4 5 11 12 14: 48.5 a.u.
2'F-ANA at 2 3 4 8 9 11 13 14 15: 224 a.u.

Other studies, line by line
PhoQ, residues 284 288 289 292 302 303 AGCYAI
fold induction (PhoP, residues 12 14 15 18 19 AWHSL (Escherichia coli, UniProt P23836); Sort-seq, refers to: YFP reporter; E. coli; PhoQ-PhoP variant library, with: 10 µM Mg2+; baseline: high Mg2+ state, higher = stronger signaling): 2.3

Excerpt of the above (block 1):
CTAACGAAGGTTTGTCCGGTGGGTGACAAGCCAAGTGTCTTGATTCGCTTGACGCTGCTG: 66.3 a.u.
